# Measurements gathered from unrelated publications.
# Each numbered part is a random draw from the data of one study; scales do not carry over between parts.
# UniProt O14733, sequence (whole entry, looked up): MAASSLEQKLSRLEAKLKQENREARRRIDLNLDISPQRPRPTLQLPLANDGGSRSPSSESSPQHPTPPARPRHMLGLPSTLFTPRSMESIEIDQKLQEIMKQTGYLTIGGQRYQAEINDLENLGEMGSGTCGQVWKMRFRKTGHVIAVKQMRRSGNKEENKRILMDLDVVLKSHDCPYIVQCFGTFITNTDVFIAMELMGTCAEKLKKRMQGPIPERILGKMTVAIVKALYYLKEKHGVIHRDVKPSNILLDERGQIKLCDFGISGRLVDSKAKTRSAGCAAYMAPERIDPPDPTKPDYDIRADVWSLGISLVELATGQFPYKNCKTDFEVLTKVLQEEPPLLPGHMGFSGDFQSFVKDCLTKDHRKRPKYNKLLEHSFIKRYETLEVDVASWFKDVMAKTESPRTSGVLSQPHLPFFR
# UniProt O43283, sequence (whole entry, looked up): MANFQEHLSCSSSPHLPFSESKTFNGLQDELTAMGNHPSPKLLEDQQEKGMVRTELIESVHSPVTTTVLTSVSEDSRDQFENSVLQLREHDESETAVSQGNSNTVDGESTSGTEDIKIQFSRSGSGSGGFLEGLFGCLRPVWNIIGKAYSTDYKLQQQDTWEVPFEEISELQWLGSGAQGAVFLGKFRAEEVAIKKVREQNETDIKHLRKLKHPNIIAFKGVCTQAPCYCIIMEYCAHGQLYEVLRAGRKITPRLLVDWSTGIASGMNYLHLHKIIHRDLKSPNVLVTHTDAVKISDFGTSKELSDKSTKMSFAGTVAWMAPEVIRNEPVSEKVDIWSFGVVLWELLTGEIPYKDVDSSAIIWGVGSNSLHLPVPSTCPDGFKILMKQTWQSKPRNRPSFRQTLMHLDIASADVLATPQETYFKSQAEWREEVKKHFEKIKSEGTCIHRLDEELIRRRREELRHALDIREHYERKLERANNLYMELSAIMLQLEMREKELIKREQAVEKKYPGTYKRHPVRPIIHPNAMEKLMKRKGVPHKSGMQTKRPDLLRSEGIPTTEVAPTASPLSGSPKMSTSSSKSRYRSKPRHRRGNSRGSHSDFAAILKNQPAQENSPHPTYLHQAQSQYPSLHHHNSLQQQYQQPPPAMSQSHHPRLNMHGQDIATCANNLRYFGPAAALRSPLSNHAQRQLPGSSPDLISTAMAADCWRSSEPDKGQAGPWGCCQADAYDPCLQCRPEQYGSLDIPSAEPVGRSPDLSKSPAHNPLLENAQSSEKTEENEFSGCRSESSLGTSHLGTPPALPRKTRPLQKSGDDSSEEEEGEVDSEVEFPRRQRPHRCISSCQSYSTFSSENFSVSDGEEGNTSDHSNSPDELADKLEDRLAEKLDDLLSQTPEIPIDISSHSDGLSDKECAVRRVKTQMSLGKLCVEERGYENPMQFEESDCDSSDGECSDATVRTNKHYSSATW
# UniProt Q52WX2, sequence (whole entry, looked up): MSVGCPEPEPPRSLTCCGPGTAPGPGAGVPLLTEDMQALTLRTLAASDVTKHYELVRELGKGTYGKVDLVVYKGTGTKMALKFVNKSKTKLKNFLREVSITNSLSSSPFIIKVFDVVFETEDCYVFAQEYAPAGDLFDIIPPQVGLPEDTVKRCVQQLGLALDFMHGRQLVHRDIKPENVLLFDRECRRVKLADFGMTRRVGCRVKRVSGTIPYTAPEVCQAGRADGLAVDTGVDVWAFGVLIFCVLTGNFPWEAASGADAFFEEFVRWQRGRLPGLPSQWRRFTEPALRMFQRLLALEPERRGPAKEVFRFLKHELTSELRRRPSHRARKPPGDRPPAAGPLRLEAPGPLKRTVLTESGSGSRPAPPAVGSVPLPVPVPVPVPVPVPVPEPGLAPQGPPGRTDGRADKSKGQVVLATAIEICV
# UniProt Q8TDC3, sequence (whole entry, looked up): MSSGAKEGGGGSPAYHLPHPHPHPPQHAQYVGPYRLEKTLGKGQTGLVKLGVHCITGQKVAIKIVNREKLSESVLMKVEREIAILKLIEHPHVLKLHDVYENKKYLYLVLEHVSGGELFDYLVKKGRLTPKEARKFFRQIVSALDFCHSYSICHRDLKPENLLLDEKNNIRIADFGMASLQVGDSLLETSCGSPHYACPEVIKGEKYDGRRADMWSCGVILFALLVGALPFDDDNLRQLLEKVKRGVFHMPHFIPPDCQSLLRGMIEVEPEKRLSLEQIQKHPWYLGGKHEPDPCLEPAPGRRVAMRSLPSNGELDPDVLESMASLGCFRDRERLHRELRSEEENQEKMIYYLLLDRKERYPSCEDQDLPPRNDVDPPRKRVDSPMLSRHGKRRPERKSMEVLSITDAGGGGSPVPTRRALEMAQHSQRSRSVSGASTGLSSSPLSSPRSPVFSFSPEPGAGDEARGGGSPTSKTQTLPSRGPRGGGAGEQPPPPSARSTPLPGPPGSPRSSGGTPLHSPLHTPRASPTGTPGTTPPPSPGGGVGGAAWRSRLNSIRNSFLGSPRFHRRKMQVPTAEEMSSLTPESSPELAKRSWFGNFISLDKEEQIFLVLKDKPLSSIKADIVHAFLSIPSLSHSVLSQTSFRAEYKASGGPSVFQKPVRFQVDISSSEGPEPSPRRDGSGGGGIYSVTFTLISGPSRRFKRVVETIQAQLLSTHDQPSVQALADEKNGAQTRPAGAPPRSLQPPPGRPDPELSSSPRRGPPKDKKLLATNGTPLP

# Study 1
# Organism: Sarcocystis neurona
# Observed: parasite growth
# Tested at: 10 µM
# Time: 96 h
# Relative to: untreated
Compound,log2 fold change
CC(=O)[C@@]1(O)CC[C@H]2[C@@H]3C[C@H](C)C4=CC(=O)C=C[C@]4(C)[C@@]3(F)[C@@H](O)C[C@@]21C,0.43
C[C@H]1COc2c(N3CCN(C)CC3)c(F)cc3c(=O)c(C(=O)O)cn1c23,-0.1
CC(=O)OCC(=O)[C@@]1(O)CC[C@H]2[C@@H]3CCC4=CC(=O)CC[C@]4(C)[C@H]3C(=O)C[C@@]21C,-0.08
CC[C@H](C)C(=O)O[C@H]1C[C@@H](C)C=C2C=C[C@H](C)[C@H](CC[C@@H]3C[C@@H](O)CC(=O)O3)[C@H]21,0.28
COc1ccc(/C=C/C(=O)Nc2ccccc2C(=O)O)cc1OC,-1.06
CCOC(=O)c1ncn2c1CN(C)C(=O)c1cc(F)ccc1-2,0.25
O=C(c1ccccc1)c1ccc2n1CCC2C(=O)O (centres unmarked),0.52

# Study 2
# Target: Ephrin type-A receptor 4 (EPHA4, Homo sapiens, UniProt P54764)
# UniProt P54764, sequence (whole entry, looked up): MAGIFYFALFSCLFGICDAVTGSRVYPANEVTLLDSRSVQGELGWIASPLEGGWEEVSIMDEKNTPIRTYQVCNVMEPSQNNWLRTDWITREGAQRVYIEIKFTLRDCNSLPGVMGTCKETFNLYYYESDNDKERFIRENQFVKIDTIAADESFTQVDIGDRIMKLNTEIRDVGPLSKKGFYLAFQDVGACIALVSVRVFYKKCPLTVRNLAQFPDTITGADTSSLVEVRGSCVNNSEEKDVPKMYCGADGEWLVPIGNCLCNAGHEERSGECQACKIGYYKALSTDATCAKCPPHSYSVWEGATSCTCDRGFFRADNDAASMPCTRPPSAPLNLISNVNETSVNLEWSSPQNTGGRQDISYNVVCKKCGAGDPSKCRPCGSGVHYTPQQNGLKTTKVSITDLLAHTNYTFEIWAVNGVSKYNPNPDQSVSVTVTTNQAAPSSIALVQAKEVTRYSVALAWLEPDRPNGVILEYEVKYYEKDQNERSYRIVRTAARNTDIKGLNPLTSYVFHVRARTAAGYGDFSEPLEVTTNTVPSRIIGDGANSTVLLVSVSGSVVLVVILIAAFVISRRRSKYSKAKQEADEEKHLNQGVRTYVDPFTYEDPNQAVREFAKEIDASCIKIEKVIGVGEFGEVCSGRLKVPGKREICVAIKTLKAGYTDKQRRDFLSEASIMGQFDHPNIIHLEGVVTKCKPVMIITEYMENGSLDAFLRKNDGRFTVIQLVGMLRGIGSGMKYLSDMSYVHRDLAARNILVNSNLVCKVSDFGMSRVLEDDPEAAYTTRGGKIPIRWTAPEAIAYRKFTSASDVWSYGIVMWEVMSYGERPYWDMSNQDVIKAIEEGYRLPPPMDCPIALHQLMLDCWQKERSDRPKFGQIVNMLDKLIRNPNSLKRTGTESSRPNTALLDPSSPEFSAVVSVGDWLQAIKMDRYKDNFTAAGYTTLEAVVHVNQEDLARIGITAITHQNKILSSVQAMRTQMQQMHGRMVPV
# Observed: enzyme activity
# Mode: inhibitor
# Tested at: 0.5 µM
# Relative to: control
SMILES,remaining activity
Nc1nccc(-c2c(-c3ccc(F)cc3)ncn2C2CCNCC2)n1,99.8%
O=C1NC(=O)C(c2c[nH]c3ccccc23)=C1c1c[nH]c2ccccc12,87.6%
CC[n+]1c(/C=C/N(C)c2ccccc2)n(-c2ccccc2)c2ccc(-c3nc4ccccc4s3)cc21,91.9%
CCCC(=O)Oc1ccc2[nH]c(C(=O)c3cc4ccccc4[nH]3)cc2c1,99.3%
Cc1ccc(NC2=CC(=O)c3sc(C)nc3C2=O)cc1,86.5%
O=C1Cc2c([nH]c3ccc([N+](=O)[O-])cc23)-c2ccccc2N1,96.5%
CC(=O)c1ccc(N2CCOCC2)cc1O,101%

# Study 3
# SMILES: COc1ccc2c(c1)O[C@@H](c1ccc(OC)c(OC)c1)C[C@H]2NC(=O)C1(c2ccc3c(c2)OC(F)(F)O3)CC1
# Observed: cell-free assay
# Technique: competition with immobilised ligand
# Tested at: 1 µM
target,remaining binding
"MATK (Homo sapiens, UniProt P42679)",93%
"MAPKAPK5 (Homo sapiens, UniProt Q8IW41)",76%
"DMPK (Homo sapiens, UniProt Q09013)",93%
"MAPK8 (Homo sapiens, UniProt P45983)",91%
"COQ8A (Homo sapiens, UniProt Q8NI60)",87%
"ALK (Homo sapiens, UniProt Q9UM73, C1156Y)",84%
"FLT3 (Homo sapiens, UniProt P36888, D835Y)",100%
"SBK1 (Homo sapiens, UniProt Q52WX2)",94%
"RET (Homo sapiens, UniProt P07949, M918T)",90%
"MAP3K13 (Homo sapiens, UniProt O43283)",67%
"BRSK1 (Homo sapiens, UniProt Q8TDC3)",99%
"EGFR (Homo sapiens, UniProt P00533, L858R)",97%
"MAP2K7 (Homo sapiens, UniProt O14733)",88%

# Other studies, line by line
# Target: DDB1- and CUL4-associated factor 1 (DCAF1, Homo sapiens, UniProt Q9Y4B6)
# UniProt Q9Y4B6, sequence (whole entry, looked up): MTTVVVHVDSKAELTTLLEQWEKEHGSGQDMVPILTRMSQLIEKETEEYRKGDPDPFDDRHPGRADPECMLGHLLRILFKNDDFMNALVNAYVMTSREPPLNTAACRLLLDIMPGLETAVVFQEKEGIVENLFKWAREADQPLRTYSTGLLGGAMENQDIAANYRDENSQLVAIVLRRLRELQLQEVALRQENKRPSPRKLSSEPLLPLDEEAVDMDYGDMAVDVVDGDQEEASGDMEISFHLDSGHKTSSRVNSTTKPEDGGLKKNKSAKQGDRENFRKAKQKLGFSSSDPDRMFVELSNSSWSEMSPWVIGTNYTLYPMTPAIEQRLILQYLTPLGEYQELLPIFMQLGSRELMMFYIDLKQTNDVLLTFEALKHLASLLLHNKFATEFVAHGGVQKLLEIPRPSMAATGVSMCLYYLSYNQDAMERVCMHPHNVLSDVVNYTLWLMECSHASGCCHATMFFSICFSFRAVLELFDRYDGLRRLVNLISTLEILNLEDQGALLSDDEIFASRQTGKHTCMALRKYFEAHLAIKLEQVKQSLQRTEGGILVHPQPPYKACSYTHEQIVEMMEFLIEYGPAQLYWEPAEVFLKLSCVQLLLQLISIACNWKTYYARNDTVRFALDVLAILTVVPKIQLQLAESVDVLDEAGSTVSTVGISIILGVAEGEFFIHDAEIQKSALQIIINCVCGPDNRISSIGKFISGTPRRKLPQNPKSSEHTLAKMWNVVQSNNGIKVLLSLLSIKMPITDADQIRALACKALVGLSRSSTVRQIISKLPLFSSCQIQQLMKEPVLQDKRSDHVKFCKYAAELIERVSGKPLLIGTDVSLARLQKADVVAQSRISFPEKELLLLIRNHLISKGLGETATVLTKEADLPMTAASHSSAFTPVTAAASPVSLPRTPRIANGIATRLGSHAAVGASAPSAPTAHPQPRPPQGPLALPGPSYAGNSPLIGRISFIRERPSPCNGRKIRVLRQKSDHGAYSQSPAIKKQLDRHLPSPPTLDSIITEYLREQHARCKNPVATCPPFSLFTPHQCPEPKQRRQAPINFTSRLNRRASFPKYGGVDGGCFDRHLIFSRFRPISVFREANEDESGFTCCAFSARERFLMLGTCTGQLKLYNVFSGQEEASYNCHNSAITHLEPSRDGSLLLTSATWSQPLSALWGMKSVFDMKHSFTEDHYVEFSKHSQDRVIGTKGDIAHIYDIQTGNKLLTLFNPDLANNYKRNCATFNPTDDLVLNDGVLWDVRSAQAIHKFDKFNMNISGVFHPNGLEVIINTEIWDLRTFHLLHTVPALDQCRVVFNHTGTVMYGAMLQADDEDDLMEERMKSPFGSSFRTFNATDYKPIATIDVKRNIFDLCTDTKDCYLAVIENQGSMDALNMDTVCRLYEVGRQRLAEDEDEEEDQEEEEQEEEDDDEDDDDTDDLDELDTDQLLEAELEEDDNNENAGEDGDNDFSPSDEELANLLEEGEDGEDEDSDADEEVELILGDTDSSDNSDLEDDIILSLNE
# Technique: SPR
SMILES,Kd [µM]
C[C@@H]1CN(c2ccc(-c3cc(C(=O)NCCOCCOCCOCCOCCNC(=O)Cn4cc(-c5[nH]cc(C(=O)N[C@@H](CC(N)=O)c6ccc(F)c(Cl)c6)c5-c5ccc(Cl)cc5F)cn4)ccc3F)cc2NC(=O)c2c[nH]c(=O)cc2C(F)(F)F)C[C@H](C)N1C,0.0479
C[C@@H]1CN(c2ccc(-c3cc(C(=O)NCCOCCOCCOCCOCCOCCOCCNC(=O)/C=C/c4[nH]cc(C(=O)N[C@@H](CC(N)=O)c5ccc(F)c(Cl)c5)c4-c4ccc(Cl)cc4F)ccc3F)cc2NC(=O)c2ccc(F)cc2C(F)(F)F)C[C@H](C)N1C,0.0393
